Published values of several laboratories.
“And” joins repeats or separate records; there may be more than shown. ± gives the spread as reported. Values after ≈ are worked out from the molar mass of the structure shown.

Structure (SMILES) | organism | assay | test system | conditions | how to read | endpoint | result
CCCCN(CCCC)CC(O)c1cc(Cl)cc2c1-c1ccc(Cl)cc1/C2=C/c1ccc(Cl)cc1 (stereo not shown) | Plasmodium berghei | Peters test | ANKA, mice | oral, 4 x 30 mg/kg | – | mean survival time | > 30 days
COc1ccc2ccc3oc([N+](=O)[O-])cc3c2c1Br | Mycobacterium marinum | REMA | ATCC BAA-535 | – | – | MIC90 | 0.0625 µg/mL (≈ 0.194 µM)
COC(=O)N[C@H](C(=O)N1CCC[C@H]1c1ncc(-c2ccc(-c3ccc(-c4cnc([C@@H]5CCCN5C(=O)[C@@H](NC(=O)OC)C(C)C)[nH]4)cc3)cc2)[nH]1)C(C)C | Hepatitis C virus | – | replicon cells | 50% effect level, with: IFN-alpha, ratio 1:1 | – | combination index | 0.73
Cn1c(=O)ccc2ccc(F)c(CCNC[C@H]3CN(c4cnc5c(n4)NC(=O)CO5)C(=O)O3)c21 | Prevotella sp. | – | – | – | – | MIC90 | < 0.015 µg/mL
C[C@H]1COCCN1c1nc(NCc2cccnc2C(F)(F)F)c2cccnc2n1 | Brugia malayi | – | SCID mouse | dose not given, 6 weeks post-treatment, dosing x14d | – | maximum adult worm burden | 18 worms per mouse
Cn1cc(NC(=O)c2cc(NC(=O)CN=C(N)N)cn2C)cc1C(=O)NCCC(=N)N | Bacillus subtilis | bacterial cytological profiling | ATCC 6633 | – | – | DNA length | 2.44 µm and 2.38 µm and 2.59 µm
Cl.N/C(CC(O)c1cc2c(F)cc(F)cc2c2cc(C(F)(F)F)ccc12)=N\c1ccc(F)cc1 (stereo not shown) | Plasmodium berghei | Peters suppressive test | ANKA, infected mice | oral, 4 x 30 mg/kg, day 4 | reference: untreated control | parasitemia reduction | 99.9%
CC[C@H](C)[C@H]1O[C@]2(CC[C@@H]1C)C[C@@H]1C[C@@H](C/C=C(\C)[C@@H](O[C@H]3C[C@H](OC)[C@@H](O[C@H]4C[C@H](OC)[C@@H](O)[C@H](C)O4)[C@H](C)O3)[C@@H](C)/C=C/C=C3\CO[C@@H]4[C@H](O)C(C)=C[C@@H](C(=O)O1)[C@]34O)O2 | Brugia malayi | – | adult female worms | 3 µM, 24 h | – | motility | 34 ± 7.3%
N=C(N)NCCC[C@H](NC(=O)[C@H](Cc1c[nH]c2ccccc12)NC(=O)[C@H](CCCNC(=N)N)NC(=O)[C@H](Cc1c[nH]c2ccccc12)NC(=O)[C@H](Cc1c[nH]c2ccccc12)NC(=O)[C@H](Cc1c[nH]c2ccccc12)NC(=O)[C@H](CCCNC(=N)N)NC(=O)[C@H](Cc1c[nH]c2ccccc12)NC(=O)[C@H](CCCNC(=N)N)NC(=O)CN)C(N)=O | Candida albicans | broth microdilution | CGMCC 2.209, RPMI 1640-MOPS | 48 h, 30 °C, with: KCl 4.5 mM | – | MIC | 4 µM (≈ 6.52 µg/mL)
O=C(NC(=O)c1c(F)cccc1F)Nc1ccc(Cl)cc1 | Plutella xylostella | leaf dipping | – | 200 mg/L, 96 h | – | mortality | 79.4 ± 4.3%
O=C(NNc1cc(F)ccc1F)c1nnc(CC23CC4CC(CC(C4)C2)C3)o1 | Botryosphaeria dothidea | fungal growth, inhibitor | – | 50 µg/mL | – | inhibition | 100%
CC[C@H](C)[C@H](NC(=O)[C@H](C)NC(=O)[C@H](CCCCN)NC(=O)[C@H](CC(C)C)NC(=O)[C@H](C)NC(=O)[C@@H](NC(=O)[C@H](Cc1c[nH]cn1)NC(=O)[C@H](CC(C)C)NC(=O)[C@@H](NC(=O)[C@@H](NC(=O)[C@H](CCCCN)NC(=O)[C@H](C)NC(=O)[C@H](C)NC(=O)[C@H](CO)NC(=O)[C@H](CCCCN)NC(=O)[C@H](Cc1ccccc1)NC(=O)[C@@H](NC(=O)[C@H](CCCCN)NC(=O)[C@H](CC(C)C)NC(=O)[C@H](Cc1ccccc1)NC(=O)[C@H](CO)NC(=O)[C@H](CCCCN)NC(=O)[C@H](Cc1c[nH]c2ccccc12)NC(=O)[C@H](CCCCN)NC(C)=O)[C@@H](C)O)[C@@H](C)O)C(C)C)[C@@H](C)O)C(=O)N[C@@H](CO)C(=O)N[C@@H](CO)C(N)=O | Pseudomonas aeruginosa | – | IPM-R | 81 strains | – | MIC90 | 16 µg/mL (≈ 5.45 µM)
COc1cc(C#CC(=O)c2ccccc2)ccc1O | Pseudomonas aeruginosa | – | – | 10 µM, 24 h | reference: untreated | pyocyanin production | 30%
